# Measured values gathered from unrelated publications.
# Lines come from different studies, so protocols differ. ± gives the spread as reported.
# Organism: HIV-1
Structure (SMILES),test,system,conditions,IC50
CC(C)OC(=O)OCOP(=O)(CO[C@H](C)Cn1cnc2c(N)ncnc21)OCOC(=O)OC(C)C,"viral replication, MTT",MT4,,580 ± 390 nM
CC[C@H](C)[C@H](NC(=O)[C@H](CC(C)C)NC(=O)[C@H](CCC(=O)O)NC(=O)[C@H](CCC(=O)O)NC(=O)[C@@H](NC(=O)[C@H](CCCCN)NC(=O)[C@H](CCCCN)NC(=O)[C@@H](NC(=O)[C@H](Cc1ccc(O)cc1)NC(=O)[C@H](CCC(=O)O)NC(=O)[C@H](CCC(=O)O)NC(=O)[C@@H](NC(=O)[C@H](CCCCN)NC(=O)[C@H](CCCCN)NC(=O)[C@H](CC(=O)O)NC(=O)[C@H](Cc1c[nH]c2ccccc12)NC(=O)[C@H](CCC(=O)O)NC(=O)[C@H](CCC(=O)O)NC(=O)[C@H](Cc1c[nH]c2ccccc12)NC(=O)[C@@H](NC(=O)[C@@H](N)CCSC)[C@@H](C)O)[C@@H](C)CC)[C@@H](C)O)[C@@H](C)CC)C(=O)N[C@@H](CCCCN)C(=O)N[C@@H](CCCCN)C(=O)N[C@@H](CO)C(=O)O,virus neutralization,MN,,102 ± 29.9 nM
Cc1nc(C(NC(=O)c2ccc(-c3ccc(Cl)cc3)[nH]2)C2CCCCN2)sc1CO (mixture of isomers),Env pseudovirus infection,"TZM-bl, panel of 56 Env pseudoviruses",,2380 nM
Nc1ccn([C@@H]2CS[C@H](CO)O2)c(=O)n1,"viral replication, MTT",MT4,,290 ± 80 nM
CC(=O)N[C@@H](CO)C(=O)N[C@@H](CO)C(=O)N[C@@H](Cc1c[nH]cn1)C(=O)N[C@@H](Cc1ccccc1)C(=O)N1CCC[C@H]1C(=O)N[C@@H](Cc1c[nH]c2ccccc12)C(=O)N[C@@H](CO)C(=O)N[C@@H](CCC(N)=O)C(=O)N[C@@H](Cc1ccc(O)cc1)C(=O)N[C@@H](CCC(N)=O)C(=O)N[C@@H](Cc1ccccc1)C(=O)N[C@@H](Cc1c[nH]c2ccccc12)C(=O)N[C@@H](CCCCN)C(N)=O,viral entry,"TZM-bl, YU2 (R5) pseudovirus",48 h,122000 ± 19000 nM
COc1ccccc1NC(=O)c1ccccc1OCc1ccc(C#N)cc1,"viral replication, item: reverse transcriptase activity","H9 expressing APOBEC3G, LAI",7 d,3100 nM
CC1(C)Oc2ccc(-c3ccc(C(=O)NC(CN)c4ncc(CO)s4)[nH]3)cc2O1 (centres unmarked),pseudovirus infection,TZM-bl,,> 24000 nM
Cc1cn([C@H]2C[C@H](N=[N+]=[N-])[C@@H](CO)O2)c(=O)[nH]c1=O,"viral replication, MTT",MT4,,30 ± 10 nM
Cc1cn([C@H]2C[C@H](N=[N+]=[N-])[C@@H](CO)O2)c(=O)[nH]c1=O,virus neutralization,BG505,,84 ± 1.8 nM
COc1cc(/C=C/C(=O)C(CCOC(=O)CCC(NC(=O)c2ccc(NCc3cnc4nc(N)[nH]c(=O)c4n3)cc2)C(=O)O)C(=O)/C=C/c2ccc(O)c(OC)c2)ccc1O (centres unmarked),"viral replication, MTT","MT-4, IIIB",,> 63 nM
C=C(C)[C@]12C[C@@H](COC(=O)c3ccccc3)[C@@]34OC5(O[C@@H]1[C@@H]3[C@@H]1O[C@]1(COC(C)=O)[C@@H](OC(C)=O)[C@@]1(O)[C@H]4[C@H]([C@H](C)[C@@H]1OC(=O)c1ccccc1)[C@H](C)CCCCCC[C@H]5OC(C)=O)O2,"viral replication, inhibitor","MT-4 cells, NL4-3 NanoLuc-sec",72 h,> 1 nM

# Repeated from above:
Structure (SMILES),test,system,conditions,IC50
COc1cc(/C=C/C(=O)C(CCOC(=O)CCC(NC(=O)c2ccc(NCc3cnc4nc(N)[nH]c(=O)c4n3)cc2)C(=O)O)C(=O)/C=C/c2ccc(O)c(OC)c2)ccc1O (centres unmarked),"viral replication, MTT","MT-4, IIIB",,> 63 nM
